# Measurements collected from several papers.
# A part holds a random share of what one study measured. Values joined by “and” are separate records of one study, mostly repeats; a detail may differ.
# UniProt P28223, sequence (whole entry, looked up): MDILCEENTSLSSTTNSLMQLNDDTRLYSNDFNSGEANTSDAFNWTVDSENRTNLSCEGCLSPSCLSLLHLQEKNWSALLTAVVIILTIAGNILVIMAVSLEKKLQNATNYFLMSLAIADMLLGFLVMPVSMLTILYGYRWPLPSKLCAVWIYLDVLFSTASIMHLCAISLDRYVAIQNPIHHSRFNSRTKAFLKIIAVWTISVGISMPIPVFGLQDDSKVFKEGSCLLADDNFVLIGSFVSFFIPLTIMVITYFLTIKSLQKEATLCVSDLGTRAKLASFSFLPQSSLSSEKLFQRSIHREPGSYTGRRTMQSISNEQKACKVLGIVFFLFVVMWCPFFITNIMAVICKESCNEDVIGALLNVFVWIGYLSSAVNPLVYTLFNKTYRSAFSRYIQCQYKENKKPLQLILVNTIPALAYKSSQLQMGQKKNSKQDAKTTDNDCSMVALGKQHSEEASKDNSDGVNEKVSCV
# UniProt P35372, sequence (whole entry, looked up): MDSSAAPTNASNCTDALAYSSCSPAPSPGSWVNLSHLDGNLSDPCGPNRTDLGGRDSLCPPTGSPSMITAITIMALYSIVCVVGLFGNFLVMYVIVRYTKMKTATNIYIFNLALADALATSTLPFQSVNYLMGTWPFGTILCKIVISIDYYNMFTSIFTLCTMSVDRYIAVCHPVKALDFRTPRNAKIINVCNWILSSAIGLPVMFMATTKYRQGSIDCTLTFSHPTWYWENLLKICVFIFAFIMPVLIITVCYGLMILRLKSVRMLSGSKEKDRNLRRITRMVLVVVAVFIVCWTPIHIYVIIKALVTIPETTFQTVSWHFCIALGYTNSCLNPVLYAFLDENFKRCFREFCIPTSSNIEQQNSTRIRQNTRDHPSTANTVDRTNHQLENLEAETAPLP
# UniProt P05771, sequence (whole entry, looked up): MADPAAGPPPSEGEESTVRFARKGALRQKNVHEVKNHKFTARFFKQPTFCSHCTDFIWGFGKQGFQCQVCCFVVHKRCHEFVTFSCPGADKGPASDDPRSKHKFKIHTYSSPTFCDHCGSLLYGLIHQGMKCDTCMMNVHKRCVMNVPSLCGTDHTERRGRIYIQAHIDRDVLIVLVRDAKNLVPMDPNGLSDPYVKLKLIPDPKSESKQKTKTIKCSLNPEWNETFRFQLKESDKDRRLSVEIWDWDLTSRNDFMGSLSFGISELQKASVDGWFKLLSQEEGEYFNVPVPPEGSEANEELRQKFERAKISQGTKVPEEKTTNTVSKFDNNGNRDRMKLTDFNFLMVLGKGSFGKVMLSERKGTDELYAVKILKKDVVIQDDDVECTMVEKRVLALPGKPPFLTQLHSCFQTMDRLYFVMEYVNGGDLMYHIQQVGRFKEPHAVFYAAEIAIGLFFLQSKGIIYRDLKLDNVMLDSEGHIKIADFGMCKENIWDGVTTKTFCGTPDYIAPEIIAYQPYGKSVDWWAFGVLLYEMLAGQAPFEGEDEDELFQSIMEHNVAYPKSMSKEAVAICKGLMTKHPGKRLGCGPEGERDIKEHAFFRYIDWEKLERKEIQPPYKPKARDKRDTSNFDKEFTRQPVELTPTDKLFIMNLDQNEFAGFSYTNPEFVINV
# UniProt P41143, sequence (whole entry, looked up): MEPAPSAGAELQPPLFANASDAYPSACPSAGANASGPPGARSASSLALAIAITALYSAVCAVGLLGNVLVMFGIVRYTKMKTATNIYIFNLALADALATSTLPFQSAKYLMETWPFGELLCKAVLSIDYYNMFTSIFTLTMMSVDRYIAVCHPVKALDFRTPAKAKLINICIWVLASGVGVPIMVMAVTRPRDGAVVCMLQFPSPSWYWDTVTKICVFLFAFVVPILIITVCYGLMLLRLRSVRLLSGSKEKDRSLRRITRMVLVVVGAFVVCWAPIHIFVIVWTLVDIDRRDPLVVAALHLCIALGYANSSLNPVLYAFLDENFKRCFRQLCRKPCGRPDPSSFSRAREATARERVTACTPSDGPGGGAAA
# UniProt P11229, sequence (whole entry, looked up): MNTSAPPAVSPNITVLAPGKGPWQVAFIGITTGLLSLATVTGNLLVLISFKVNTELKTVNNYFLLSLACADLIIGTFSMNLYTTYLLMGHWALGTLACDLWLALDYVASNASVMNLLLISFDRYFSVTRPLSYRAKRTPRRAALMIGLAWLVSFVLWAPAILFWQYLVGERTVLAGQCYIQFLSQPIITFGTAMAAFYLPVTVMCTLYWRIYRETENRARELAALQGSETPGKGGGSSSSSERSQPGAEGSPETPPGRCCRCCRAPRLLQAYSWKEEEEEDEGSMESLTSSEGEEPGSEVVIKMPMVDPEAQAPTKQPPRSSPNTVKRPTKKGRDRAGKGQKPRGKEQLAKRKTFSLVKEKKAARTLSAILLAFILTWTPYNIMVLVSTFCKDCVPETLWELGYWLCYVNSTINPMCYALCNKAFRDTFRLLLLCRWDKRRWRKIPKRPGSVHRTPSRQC
# UniProt P41145, sequence (whole entry, looked up): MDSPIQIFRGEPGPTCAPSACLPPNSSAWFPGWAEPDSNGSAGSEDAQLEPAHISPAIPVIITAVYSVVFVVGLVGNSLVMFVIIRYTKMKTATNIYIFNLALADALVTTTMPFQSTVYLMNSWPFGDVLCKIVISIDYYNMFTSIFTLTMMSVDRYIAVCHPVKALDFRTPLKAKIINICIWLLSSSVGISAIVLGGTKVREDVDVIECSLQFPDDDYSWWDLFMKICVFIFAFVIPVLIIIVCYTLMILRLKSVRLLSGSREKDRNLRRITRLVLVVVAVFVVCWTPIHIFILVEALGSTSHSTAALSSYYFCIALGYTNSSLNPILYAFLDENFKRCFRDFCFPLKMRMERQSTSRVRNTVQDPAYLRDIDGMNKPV
# UniProt P21918, sequence (whole entry, looked up): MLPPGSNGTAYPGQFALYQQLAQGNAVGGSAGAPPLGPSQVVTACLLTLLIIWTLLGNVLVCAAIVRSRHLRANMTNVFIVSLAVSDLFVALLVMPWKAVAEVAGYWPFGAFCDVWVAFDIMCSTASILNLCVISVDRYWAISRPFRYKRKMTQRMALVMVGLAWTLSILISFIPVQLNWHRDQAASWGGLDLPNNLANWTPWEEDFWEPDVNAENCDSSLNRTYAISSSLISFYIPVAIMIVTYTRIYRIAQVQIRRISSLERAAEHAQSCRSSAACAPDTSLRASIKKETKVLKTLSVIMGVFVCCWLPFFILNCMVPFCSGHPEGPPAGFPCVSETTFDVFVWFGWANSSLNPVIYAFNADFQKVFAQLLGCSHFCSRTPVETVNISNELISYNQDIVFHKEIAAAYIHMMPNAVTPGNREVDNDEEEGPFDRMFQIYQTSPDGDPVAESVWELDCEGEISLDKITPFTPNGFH
# UniProt P20309, sequence (whole entry, looked up): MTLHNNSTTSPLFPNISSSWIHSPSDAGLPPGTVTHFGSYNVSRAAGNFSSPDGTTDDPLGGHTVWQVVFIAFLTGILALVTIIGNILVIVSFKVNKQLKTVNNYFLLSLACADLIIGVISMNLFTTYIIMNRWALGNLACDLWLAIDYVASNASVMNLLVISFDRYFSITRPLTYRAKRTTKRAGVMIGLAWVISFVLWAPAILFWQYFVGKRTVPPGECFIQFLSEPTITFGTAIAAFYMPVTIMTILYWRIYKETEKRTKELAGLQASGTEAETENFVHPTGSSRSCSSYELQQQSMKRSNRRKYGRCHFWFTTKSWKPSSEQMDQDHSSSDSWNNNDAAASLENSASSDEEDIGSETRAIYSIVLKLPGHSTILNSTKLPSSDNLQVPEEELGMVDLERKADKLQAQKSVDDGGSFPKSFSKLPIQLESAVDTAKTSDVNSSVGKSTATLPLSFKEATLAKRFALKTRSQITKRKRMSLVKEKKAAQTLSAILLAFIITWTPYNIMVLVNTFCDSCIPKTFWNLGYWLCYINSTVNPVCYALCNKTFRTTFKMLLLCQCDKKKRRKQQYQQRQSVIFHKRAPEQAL

# Sample 1
# Structure (SMILES): Cc1c(C(=O)O)cc(-c2ccc(C3CCNCC3)cc2)c2ccc(-c3ccc(C(F)(F)F)cc3)cc12
# Read-out: cell-free assay
# Tested at: 10 µM
target,inhibition [%]
"Kappa-type opioid receptor (OPRK1, Homo sapiens, UniProt P41145)",27.9
"5-hydroxytryptamine receptor 2A (HTR2A, Homo sapiens, UniProt P28223)",23.4
"D(1B) dopamine receptor (DRD5, Homo sapiens, UniProt P21918)",58.1
"Muscarinic acetylcholine receptor M1 (CHRM1, Homo sapiens, UniProt P11229)",7.22
"Muscarinic acetylcholine receptor M3 (CHRM3, Homo sapiens, UniProt P20309)",0.06
"Mu-type opioid receptor (OPRM1, Homo sapiens, UniProt P35372)",12.6
"Delta-type opioid receptor (OPRD1, Homo sapiens, UniProt P41143)",32

# Sample 2
# Target: UDP-N-acetylglucosamine--peptide N-acetylglucosaminyltransferase 110 kDa subunit (OGT, Homo sapiens, UniProt O15294)
# Read-out: binding
# Method: phage display NGS
# Form: peptide
# Tested at: concentration not given
# Setting: panning round 4
# Baseline: input library
# Construct (O15294 1-1046): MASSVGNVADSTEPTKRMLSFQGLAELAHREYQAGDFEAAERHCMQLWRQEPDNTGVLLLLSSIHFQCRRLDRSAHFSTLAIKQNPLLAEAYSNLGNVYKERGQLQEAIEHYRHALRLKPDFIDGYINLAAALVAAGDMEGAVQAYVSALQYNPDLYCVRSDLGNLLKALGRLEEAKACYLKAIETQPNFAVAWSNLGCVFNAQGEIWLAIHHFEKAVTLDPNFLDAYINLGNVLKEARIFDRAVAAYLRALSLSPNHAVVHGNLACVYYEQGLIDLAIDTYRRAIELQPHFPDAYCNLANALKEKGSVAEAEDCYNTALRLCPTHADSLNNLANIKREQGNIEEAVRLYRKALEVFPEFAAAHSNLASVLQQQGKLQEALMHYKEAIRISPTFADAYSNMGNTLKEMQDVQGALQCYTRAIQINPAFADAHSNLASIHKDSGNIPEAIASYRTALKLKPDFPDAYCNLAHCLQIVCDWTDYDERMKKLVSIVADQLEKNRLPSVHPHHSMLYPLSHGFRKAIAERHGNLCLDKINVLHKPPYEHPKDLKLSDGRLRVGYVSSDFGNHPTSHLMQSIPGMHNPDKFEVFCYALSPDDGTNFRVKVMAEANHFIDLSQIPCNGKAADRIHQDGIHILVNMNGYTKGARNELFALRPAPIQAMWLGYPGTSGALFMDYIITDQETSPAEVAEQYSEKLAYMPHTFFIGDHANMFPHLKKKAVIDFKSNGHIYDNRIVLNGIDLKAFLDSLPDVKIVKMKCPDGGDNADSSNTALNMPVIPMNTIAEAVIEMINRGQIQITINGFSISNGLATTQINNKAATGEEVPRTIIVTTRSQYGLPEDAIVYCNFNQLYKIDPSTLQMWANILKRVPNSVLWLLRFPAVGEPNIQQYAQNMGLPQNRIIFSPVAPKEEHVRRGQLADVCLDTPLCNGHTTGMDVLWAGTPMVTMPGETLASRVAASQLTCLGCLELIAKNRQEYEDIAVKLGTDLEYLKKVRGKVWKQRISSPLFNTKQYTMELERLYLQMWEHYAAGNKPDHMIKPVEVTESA
Molecule,enrichment fold change
GPFQPFYQIYFDTLP,1.56
APLFQPKYQINIYGQ,2.39
GSLFAPKYQMSYEVV,1.61
VEQSSPFAPQYQIQM,1.96
ANKGYYPPVYQIWLG,1.67
NFYPPVYAIKITPSR,1.65
NQYQPQYQIIFAHQ,1.91
TDPFYPPAYQIQVFK,1.56

# Single results of other studies
Structure (SMILES),target or system,test,test system,conditions,how to read,measurement,result
CCCCC[C@@H](O)CC(=O)N[C@H]1COC(=O)[C@H](CO)NC(=O)CNC(=O)[C@H]([C@@H](C)O)NC(=O)[C@H](Cc2ccccc2)NC(=O)[C@@H](Cc2c[nH]c3ccccc23)NC(=O)[C@@H]([C@H](C)O)NC(=O)[C@H](CC(N)=O)NC(=O)[C@@H]([C@H](C)O)NC(=O)[C@H](CC(C)C)NC(=O)[C@@H](Cc2c[nH]c3ccccc23)N(C)C(=O)CNC(=O)[C@H](CO)NC(=O)[C@@H](CO)NC1=O,Staphylococcus aureus,,USA300,"2 x MIC, 240 min",,viable cells,300 CFU/mL and 500 CFU/mL
COc1cc(=O)n(-c2ccccc2)cc1C(=O)N1CCC2(CC1)OCCO2,,,"human, microsomes or S9","2 µM, 0.5 h",,remaining compound,91.7%
O=c1[nH]c2ccccc2n1C1CCN(Cc2ccc(-c3[nH]c4cc5ncnc5cc4nc3-c3ccccc3)cc2)CC1,"Protein kinase C beta type, isoform beta-II (PRKCB, Homo sapiens, UniProt P05771)","enzyme activity, inhibitor",,0.5 µM,baseline: control,remaining activity,105%

# Some of these lines once more (sample 2):
Molecule,enrichment fold change
ANKGYYPPVYQIWLG,1.67
